Assay results of several laboratories.
Numbered parts are unrelated; each lists some results of a single study. Positions count from the first letter of the parent shown.
UniProt P80192, sequence (whole entry, looked up): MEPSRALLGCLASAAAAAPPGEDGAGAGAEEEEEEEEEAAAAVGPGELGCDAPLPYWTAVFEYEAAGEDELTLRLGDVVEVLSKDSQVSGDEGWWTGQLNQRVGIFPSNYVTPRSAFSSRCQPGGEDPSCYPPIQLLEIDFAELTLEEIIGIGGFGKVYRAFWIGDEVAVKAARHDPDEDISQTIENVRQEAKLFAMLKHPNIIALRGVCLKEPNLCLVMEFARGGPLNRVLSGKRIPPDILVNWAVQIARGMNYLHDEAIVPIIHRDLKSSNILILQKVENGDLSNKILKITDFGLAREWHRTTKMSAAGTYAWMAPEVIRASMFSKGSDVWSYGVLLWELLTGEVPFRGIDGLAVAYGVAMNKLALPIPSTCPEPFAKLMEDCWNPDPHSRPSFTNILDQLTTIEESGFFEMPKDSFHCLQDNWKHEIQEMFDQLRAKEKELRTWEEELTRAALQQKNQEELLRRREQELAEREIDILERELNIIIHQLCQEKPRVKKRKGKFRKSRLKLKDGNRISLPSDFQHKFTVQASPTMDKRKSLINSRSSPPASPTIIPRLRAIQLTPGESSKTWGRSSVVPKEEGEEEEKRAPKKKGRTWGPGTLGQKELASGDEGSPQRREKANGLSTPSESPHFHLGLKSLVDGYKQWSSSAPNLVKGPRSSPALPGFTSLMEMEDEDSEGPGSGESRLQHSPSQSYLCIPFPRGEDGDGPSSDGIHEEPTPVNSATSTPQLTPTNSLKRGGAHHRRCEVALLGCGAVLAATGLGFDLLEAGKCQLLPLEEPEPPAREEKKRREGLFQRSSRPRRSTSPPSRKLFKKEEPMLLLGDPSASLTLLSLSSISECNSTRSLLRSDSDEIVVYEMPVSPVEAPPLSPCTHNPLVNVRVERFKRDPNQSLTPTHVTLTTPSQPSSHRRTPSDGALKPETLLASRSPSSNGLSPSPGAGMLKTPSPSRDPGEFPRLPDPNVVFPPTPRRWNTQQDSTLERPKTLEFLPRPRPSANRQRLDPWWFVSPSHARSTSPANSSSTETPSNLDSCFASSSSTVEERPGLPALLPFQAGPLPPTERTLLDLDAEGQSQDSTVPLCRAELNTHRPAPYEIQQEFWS
UniProt O95819, sequence (whole entry, looked up): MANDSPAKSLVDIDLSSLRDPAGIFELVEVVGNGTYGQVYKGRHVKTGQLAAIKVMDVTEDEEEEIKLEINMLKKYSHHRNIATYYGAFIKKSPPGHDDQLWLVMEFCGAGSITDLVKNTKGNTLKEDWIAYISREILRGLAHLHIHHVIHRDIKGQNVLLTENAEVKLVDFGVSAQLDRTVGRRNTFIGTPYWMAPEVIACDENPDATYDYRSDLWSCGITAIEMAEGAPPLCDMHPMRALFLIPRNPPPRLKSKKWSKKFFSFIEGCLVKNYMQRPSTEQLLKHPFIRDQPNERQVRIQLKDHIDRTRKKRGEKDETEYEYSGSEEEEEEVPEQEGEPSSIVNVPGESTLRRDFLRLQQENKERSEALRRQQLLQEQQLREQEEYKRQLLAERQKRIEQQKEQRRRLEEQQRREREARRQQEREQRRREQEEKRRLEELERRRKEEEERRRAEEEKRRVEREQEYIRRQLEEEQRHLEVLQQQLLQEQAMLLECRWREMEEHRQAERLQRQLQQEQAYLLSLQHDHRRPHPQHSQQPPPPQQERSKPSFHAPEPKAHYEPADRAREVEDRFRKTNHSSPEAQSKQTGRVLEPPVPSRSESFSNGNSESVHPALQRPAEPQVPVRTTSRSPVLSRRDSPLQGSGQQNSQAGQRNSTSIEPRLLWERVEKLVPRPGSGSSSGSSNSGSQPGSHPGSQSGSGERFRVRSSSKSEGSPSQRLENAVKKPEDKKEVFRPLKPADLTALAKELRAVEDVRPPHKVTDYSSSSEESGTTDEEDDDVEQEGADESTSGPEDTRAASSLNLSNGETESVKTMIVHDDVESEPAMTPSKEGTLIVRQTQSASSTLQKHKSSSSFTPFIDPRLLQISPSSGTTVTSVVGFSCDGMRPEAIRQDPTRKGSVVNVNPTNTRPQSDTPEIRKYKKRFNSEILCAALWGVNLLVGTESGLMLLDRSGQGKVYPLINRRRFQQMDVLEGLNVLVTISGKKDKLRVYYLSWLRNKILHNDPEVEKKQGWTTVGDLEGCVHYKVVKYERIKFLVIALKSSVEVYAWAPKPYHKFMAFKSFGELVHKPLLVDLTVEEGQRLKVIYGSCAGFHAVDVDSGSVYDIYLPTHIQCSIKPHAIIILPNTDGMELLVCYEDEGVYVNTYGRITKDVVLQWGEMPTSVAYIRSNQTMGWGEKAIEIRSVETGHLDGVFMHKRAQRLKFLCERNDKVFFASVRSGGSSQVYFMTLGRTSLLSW
UniProt Q8N5S9, sequence (whole entry, looked up): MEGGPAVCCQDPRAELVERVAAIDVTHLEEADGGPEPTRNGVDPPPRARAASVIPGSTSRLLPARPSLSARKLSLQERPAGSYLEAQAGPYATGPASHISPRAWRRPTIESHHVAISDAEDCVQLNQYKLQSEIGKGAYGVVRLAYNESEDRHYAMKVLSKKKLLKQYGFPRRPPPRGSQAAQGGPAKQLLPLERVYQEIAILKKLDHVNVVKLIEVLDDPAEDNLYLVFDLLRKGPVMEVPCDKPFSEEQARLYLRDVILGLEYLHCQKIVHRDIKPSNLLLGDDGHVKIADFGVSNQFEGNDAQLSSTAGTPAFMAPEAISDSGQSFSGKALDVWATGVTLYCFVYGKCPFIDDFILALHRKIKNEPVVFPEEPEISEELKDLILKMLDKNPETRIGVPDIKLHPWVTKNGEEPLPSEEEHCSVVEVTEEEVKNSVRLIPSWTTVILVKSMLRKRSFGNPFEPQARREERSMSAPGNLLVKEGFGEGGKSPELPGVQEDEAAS
UniProt Q9UK32, sequence (whole entry, looked up): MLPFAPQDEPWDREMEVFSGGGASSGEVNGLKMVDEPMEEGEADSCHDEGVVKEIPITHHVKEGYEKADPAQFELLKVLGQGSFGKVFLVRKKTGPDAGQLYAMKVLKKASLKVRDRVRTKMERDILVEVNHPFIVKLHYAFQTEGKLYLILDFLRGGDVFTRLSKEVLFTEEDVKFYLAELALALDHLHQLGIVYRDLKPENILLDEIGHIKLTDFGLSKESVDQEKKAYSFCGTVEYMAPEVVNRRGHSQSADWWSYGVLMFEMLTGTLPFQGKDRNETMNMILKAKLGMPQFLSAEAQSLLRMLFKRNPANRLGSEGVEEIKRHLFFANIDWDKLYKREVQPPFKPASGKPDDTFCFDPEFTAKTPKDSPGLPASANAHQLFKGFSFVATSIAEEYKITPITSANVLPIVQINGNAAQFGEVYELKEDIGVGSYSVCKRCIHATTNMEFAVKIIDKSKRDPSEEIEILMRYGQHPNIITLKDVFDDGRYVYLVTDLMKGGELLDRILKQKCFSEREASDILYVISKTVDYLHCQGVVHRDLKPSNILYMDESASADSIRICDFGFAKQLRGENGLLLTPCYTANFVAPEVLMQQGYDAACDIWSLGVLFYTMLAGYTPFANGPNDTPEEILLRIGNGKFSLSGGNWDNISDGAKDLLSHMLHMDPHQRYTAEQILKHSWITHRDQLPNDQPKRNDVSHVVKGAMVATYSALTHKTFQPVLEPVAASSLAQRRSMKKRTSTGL
UniProt Q9H2X6, sequence (whole entry, looked up): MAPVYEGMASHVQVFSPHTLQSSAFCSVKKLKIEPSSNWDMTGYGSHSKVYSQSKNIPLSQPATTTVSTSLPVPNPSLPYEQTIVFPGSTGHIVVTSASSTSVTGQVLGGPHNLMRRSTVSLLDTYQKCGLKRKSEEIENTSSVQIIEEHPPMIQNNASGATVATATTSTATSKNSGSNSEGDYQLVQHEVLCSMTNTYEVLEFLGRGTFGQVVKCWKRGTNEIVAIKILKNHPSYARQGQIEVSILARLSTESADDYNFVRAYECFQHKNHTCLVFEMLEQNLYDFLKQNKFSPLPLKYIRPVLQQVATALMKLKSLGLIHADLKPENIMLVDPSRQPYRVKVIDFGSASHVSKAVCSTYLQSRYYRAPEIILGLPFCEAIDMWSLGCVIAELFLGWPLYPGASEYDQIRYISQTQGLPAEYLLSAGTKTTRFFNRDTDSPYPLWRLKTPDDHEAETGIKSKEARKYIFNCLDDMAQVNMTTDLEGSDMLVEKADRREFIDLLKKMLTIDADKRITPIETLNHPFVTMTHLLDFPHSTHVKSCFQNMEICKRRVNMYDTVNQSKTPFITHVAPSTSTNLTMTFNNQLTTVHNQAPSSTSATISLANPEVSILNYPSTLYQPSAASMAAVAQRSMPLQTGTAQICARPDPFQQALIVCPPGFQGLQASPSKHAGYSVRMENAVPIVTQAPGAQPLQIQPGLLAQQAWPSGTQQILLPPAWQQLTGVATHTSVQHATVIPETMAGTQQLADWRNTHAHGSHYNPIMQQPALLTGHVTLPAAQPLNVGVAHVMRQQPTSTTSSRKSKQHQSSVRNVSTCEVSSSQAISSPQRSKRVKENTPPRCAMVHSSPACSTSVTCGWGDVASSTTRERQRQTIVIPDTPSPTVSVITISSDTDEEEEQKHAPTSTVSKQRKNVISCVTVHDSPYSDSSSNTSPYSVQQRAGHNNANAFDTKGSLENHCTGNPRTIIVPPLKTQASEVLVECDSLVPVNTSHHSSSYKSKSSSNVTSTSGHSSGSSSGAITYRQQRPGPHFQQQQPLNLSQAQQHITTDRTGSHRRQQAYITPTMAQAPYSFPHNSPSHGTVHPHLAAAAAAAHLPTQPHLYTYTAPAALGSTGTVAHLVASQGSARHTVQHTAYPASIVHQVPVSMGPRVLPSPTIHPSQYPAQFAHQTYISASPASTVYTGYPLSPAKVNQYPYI
UniProt O75716, sequence (whole entry, looked up): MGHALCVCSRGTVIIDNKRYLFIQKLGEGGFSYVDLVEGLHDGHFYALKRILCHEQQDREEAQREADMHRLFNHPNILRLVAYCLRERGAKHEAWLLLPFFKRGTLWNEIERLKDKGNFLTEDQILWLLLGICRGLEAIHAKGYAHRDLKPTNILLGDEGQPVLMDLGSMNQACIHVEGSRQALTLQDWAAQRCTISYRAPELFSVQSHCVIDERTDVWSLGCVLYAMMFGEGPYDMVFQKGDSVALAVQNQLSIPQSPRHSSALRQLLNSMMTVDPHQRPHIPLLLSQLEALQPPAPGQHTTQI

Block 1 — target: NFE2, bZIP domain (human); method: DHFR protein complementation; matrix: yeast; baseline: wild-type JUN-FOS pair; direction: higher = stronger binding
Setting: single substitutions, most at no-binding floor
Starting sequence: JUN, bZIP domain (human); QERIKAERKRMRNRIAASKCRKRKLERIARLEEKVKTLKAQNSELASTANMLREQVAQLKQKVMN; partner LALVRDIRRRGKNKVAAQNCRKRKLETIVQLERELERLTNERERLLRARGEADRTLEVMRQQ
Variant | binding fitness
A40T | -1.4 natural log
L38D | -1.41 natural log
I28W | -1.16 natural log
K34V | -1.49 natural log
A49T | -1.28 natural log
S47W | -1.47 natural log
K39L | -1.42 natural log
Q55I | -1.33 natural log

Block 2 — observed: cell-free assay; method: competition with immobilised ligand; concentration: 1 µM
SMILES: CC(=O)N1CCC(c2ccc(C(=O)NC3=NCCN3)cc2C(F)(F)F)CC1
target | remaining binding [%]
IRAK4 (Homo sapiens, UniProt Q9NWZ3) | 89
MAP3K2 (Homo sapiens, UniProt Q9Y2U5) | 100
CAMKK1 (Homo sapiens, UniProt Q8N5S9) | 100
LCK (Homo sapiens, UniProt P06239) | 100
TIE1 (Homo sapiens, UniProt P35590) | 82
FGFR3 (Homo sapiens, UniProt P22607, G697C) | 87
NIM1K (Homo sapiens, UniProt Q8IY84) | 100
PIK3CA (Homo sapiens, UniProt P42336) | 100
MAP3K13 (Homo sapiens, UniProt O43283) | 100
Tyrosine-protein kinase JAK1, JH1 (JAK1, Homo sapiens, UniProt P23458) | 100
PIK3CG (Homo sapiens, UniProt P48736) | 100
MINK1 (Homo sapiens, UniProt Q8N4C8) | 100
MAP3K9 (Homo sapiens, UniProt P80192) | 100

Block 3 — observed: enzyme activity; action: inhibitor; concentration: 0.5 µM; baseline: control
Structure (SMILES): O=C1NC(=O)C(c2c[nH]c3ccccc23)=C1c1c[nH]c2ccccc12
target | remaining activity
STK16 (Homo sapiens, UniProt O75716) | 94.2%
RPS6KA6 (Homo sapiens, UniProt Q9UK32) | 19.2%
TSSK2 (Homo sapiens, UniProt Q96PF2) | 110%
DYRK3 (Homo sapiens, UniProt O43781) | 101%
WNK3 (Homo sapiens, UniProt Q9BYP7) | 98.3%
EPHB1 (Homo sapiens, UniProt P54762) | 83.1%
MAPKAPK3 (Homo sapiens, UniProt Q16644) | 90.5%
RPS6KA5 (Homo sapiens, UniProt O75582) | 62%
Cyclin-dependent kinase 6, with cyclin D3 (CDK6, Homo sapiens, UniProt Q00534) | 103%
PDPK1 (Homo sapiens, UniProt O15530) | 96.7%
PHKG1 (Homo sapiens, UniProt Q16816) | 74.9%
MAP4K4 (Homo sapiens, UniProt O95819) | 58.5%
HIPK4 (Homo sapiens, UniProt Q8NE63) | 109%
BLK (Homo sapiens, UniProt P51451) | 93.7%
STK17A (Homo sapiens, UniProt Q9UEE5) | 92.2%
HIPK2 (Homo sapiens, UniProt Q9H2X6) | 104%
SRMS (Homo sapiens, UniProt Q9H3Y6) | 82.4%
Cyclin-dependent kinase 1, with cyclin B (CDK1, Homo sapiens, UniProt P06493) | 96.5%
Cyclin-dependent kinase 4, with cyclin D3 (CDK4, Homo sapiens, UniProt P11802) | 89.8%
EPHB4 (Homo sapiens, UniProt P54760) | 88.5%
AXL (Homo sapiens, UniProt P30530) | 103%
CAMK2B (Homo sapiens, UniProt Q13554) | 96.9%

Other studies, line by line
SMILES | target or system | test | system | conditions | quantity | result
COc1ccc(-c2c(Nc3ccccn3)[nH]c3c(C4=CCCCC4)c(-c4ccccc4)nn3c2=O)cc1 | – | – | human, plasma | oral, 200 mg twice daily, cycle 1 | AUC(tau) extrapolated fraction | 0%
C[C@@H]1CN(c2ccc(-c3cc(C(=O)NCCOCCOCCOCCOCCNC(=O)/C=C/c4[nH]cc(C(=O)N[C@@H](CC(N)=O)c5ccc(F)c(Cl)c5)c4-c4ccc(Cl)cc4F)ccc3F)cc2NC(=O)c2c[nH]c(=O)cc2C(F)(F)F)C[C@H](C)N1C | DCAF1 (Homo sapiens, UniProt Q9Y4B6) | SPR | – | – | Kd | 54 nM
CC(=O)N[C@@H](Cc1c[nH]c2ccccc12)C(=O)N[C@@H](CCC(=O)C=[N+]=[N-])C(=O)OC(C)C | – | – | C57BL/6 CES1-/- mice, EL4 tumour-bearing, tumour | dose not given | concentration | not detected

A few entries again (other studies, line by line):
SMILES | target or system | test | system | conditions | quantity | result
COc1ccc(-c2c(Nc3ccccn3)[nH]c3c(C4=CCCCC4)c(-c4ccccc4)nn3c2=O)cc1 | – | – | human, plasma | oral, 200 mg twice daily, cycle 1 | AUC(tau) extrapolated fraction | 0%
C[C@@H]1CN(c2ccc(-c3cc(C(=O)NCCOCCOCCOCCOCCNC(=O)/C=C/c4[nH]cc(C(=O)N[C@@H](CC(N)=O)c5ccc(F)c(Cl)c5)c4-c4ccc(Cl)cc4F)ccc3F)cc2NC(=O)c2c[nH]c(=O)cc2C(F)(F)F)C[C@H](C)N1C | DCAF1 (Homo sapiens, UniProt Q9Y4B6) | SPR | – | – | Kd | 54 nM
CC(=O)N[C@@H](Cc1c[nH]c2ccccc12)C(=O)N[C@@H](CCC(=O)C=[N+]=[N-])C(=O)OC(C)C | – | – | C57BL/6 CES1-/- mice, EL4 tumour-bearing, tumour | dose not given | concentration | not detected
